Published values collected from several papers.
Compare with care: the assays were run in different laboratories. Numbers after ± are the reported error.
Target: Sodium-dependent dopamine transporter (Slc6a3, Rattus norvegicus, UniProt P23977)
Sequence of UniProt P23977 (whole entry, looked up): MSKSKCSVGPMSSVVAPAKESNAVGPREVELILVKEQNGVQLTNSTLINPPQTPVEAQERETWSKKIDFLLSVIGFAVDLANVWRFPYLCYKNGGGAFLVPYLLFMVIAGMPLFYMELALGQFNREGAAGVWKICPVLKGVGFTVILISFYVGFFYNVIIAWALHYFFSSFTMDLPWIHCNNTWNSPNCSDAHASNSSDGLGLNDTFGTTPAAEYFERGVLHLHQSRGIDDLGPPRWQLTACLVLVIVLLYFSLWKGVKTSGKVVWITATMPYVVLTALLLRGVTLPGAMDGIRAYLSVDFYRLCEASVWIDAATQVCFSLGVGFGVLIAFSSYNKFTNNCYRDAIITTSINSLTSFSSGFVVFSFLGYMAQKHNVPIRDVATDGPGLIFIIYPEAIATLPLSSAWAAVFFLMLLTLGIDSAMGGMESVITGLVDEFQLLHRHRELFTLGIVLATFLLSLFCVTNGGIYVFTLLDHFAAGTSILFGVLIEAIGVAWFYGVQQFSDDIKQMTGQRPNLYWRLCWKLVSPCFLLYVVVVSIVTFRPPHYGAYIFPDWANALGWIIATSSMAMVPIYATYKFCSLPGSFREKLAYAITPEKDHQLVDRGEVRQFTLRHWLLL

| SMILES | test | test system | conditions | measurement | value |
| --- | --- | --- | --- | --- | --- |
| CCN(CC)CCc1c[nH]c2ccc(OC)cc12 | inhibitor | – | – | IC50 | > 10000 nM |
| CNC(COC)C(=O)c1ccc(C)cc1 (stereo not drawn) | dopamine transport | – | – | IC50 | 6840 nM |
| CNC(C)C(=O)c1ccccc1 (stereo not drawn) | substrate release, releaser | rat striatal synaptosomes | together with: [3H]MPP+ | EC50 | 21 nM |
| CCCC(C(=O)c1ccc2c(c1)OCO2)N1CCCC1 (racemic) | transporter uptake, inhibitor, radiometric | – | – | IC50 | 4.85 nM |
| CNC(C)Cc1ccc2ccoc2c1 (stereo not drawn) | transporter-mediated release, substrate | rat striatal synaptosomes | 30 min, together with: [3H]MPP+ | EC50 | 20 ± 2 nM |
| CCC[C@H](C(=O)c1ccccc1)N1CCCC1 | transporter uptake, inhibitor, radiometric | – | – | IC50 | 307 nM |
| c1ccc(CCN2CCCCC2)cc1 | ligand displacement, radioligand | – | – | Ki | 2940 nM |
| CN(C)CCN(C)CCc1ccc(Cl)c(Cl)c1 | ligand displacement, radioligand | – | – | Ki | 3220 nM |
| CCCC(C(=O)c1ccc2c(c1)OCO2)N1CCCC1 (stereo not drawn) | transporter uptake, inhibitor, radiometric | – | – | IC50 | 4.1 nM |
| CNC(C)C(=O)c1cccc(Cl)c1 (stereo not drawn) | dopamine release, releaser | rat brain synaptosomes | – | EC50 | 46.8 ± 4 nM |
| CCN(CC)CCc1c[nH]c2ccccc12 | inhibitor | – | – | IC50 | > 10000 nM |
| Cc1ccc([C@H]2OC(N)=N[C@H]2C)cc1 (racemic) | substrate release, releaser, [3H]MPP+ release | rat brain synaptosomes | together with: [3H]MPP+ 9 nM | EC50 | 8.6 ± 1.1 nM |
| CCCN(CCC)CCc1c[nH]c2ccc(OC)cc12 | inhibitor | – | – | IC50 | 17000 ± 2190 nM |
| Cc1ccc([C@@H]2OC(N)=N[C@H]2C)cc1 (relative stereo) | substrate release, releaser | rat brain synaptosomes | together with: [3H]MPP+ 9 nM | EC50 | 24.4 ± 2.7 nM |
| CCCNC(C)C(=O)c1ccccc1 (stereo not drawn) | dopamine uptake, inhibitor | rat brain synaptosomes | together with: [3H]dopamine | IC50 | > 10000 nM |
| C[C@@H]1N=C(N)O[C@@H]1c1ccc2c(c1)OCO2 (racemic) | substrate release, releaser | rat brain synaptosomes | together with: [3H]MPP+ 9 nM | EC50 | 10.2 ± 1.2 nM |
| CC(C)NCCc1c[nH]c2ccccc12 | inhibitor | – | – | IC50 | > 10000 nM |
| CN(CCc1ccc(Cl)c(Cl)c1)CCN1CCCC1 | ligand displacement, radioligand | – | – | Ki | 2510 nM |
